Results gathered from unrelated publications.
± gives the spread as reported.
DRD4: D(4) dopamine receptor (DRD4, Homo sapiens, UniProt P21917)
UniProt P21917, sequence (whole entry, looked up): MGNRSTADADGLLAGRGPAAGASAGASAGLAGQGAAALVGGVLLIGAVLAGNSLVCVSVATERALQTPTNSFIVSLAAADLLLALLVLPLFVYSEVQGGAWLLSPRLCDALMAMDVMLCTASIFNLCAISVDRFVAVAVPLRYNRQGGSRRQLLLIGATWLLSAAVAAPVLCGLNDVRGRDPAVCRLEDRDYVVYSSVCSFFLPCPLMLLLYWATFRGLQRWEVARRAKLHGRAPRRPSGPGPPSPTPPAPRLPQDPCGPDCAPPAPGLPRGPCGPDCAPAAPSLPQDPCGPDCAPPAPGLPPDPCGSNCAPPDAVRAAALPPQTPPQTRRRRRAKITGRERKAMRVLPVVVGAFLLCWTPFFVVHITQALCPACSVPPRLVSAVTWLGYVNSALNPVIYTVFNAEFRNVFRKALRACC
UniProt Q9UHM6, sequence (whole entry, looked up): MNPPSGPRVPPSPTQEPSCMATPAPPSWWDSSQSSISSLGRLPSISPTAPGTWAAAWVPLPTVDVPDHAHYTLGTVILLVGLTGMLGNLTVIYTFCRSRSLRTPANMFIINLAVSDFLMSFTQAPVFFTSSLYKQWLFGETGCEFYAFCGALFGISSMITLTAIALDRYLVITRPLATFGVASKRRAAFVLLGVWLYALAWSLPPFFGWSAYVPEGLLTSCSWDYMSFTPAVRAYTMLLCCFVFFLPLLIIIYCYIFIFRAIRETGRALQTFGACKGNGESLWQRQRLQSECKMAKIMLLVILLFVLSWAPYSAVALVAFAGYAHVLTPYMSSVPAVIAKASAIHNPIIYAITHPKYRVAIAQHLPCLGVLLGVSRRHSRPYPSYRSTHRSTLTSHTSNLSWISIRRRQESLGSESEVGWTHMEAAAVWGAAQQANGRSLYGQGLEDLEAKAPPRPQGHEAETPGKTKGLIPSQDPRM
UniProt P04756, sequence (whole entry, looked up): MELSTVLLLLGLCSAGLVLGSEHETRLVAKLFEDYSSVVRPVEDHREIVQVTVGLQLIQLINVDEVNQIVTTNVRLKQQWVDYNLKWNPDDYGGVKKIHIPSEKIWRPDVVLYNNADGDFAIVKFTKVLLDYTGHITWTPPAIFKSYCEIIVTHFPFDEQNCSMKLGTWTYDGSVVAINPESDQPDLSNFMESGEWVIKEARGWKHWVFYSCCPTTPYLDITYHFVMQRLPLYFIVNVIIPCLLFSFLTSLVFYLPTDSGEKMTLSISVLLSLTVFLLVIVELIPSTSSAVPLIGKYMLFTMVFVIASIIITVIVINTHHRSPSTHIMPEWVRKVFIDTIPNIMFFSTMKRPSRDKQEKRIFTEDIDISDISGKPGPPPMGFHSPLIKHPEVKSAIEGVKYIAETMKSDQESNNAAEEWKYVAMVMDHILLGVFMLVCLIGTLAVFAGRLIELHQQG
UniProt P02716, sequence (whole entry, looked up): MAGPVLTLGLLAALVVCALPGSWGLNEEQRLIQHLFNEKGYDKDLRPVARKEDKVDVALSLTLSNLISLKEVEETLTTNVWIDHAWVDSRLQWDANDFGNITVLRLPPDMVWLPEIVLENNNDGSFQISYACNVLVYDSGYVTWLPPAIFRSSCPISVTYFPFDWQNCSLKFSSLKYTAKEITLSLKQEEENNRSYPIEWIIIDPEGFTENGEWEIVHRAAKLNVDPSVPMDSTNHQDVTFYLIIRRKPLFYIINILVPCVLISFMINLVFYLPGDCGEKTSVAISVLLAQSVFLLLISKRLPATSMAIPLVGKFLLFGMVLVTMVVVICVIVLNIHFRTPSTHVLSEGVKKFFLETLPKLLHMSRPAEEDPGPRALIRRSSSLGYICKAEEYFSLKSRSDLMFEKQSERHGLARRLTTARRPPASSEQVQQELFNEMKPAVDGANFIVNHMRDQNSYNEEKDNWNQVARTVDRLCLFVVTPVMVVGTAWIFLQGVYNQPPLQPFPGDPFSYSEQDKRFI
UniProt Q15303, sequence (whole entry, looked up): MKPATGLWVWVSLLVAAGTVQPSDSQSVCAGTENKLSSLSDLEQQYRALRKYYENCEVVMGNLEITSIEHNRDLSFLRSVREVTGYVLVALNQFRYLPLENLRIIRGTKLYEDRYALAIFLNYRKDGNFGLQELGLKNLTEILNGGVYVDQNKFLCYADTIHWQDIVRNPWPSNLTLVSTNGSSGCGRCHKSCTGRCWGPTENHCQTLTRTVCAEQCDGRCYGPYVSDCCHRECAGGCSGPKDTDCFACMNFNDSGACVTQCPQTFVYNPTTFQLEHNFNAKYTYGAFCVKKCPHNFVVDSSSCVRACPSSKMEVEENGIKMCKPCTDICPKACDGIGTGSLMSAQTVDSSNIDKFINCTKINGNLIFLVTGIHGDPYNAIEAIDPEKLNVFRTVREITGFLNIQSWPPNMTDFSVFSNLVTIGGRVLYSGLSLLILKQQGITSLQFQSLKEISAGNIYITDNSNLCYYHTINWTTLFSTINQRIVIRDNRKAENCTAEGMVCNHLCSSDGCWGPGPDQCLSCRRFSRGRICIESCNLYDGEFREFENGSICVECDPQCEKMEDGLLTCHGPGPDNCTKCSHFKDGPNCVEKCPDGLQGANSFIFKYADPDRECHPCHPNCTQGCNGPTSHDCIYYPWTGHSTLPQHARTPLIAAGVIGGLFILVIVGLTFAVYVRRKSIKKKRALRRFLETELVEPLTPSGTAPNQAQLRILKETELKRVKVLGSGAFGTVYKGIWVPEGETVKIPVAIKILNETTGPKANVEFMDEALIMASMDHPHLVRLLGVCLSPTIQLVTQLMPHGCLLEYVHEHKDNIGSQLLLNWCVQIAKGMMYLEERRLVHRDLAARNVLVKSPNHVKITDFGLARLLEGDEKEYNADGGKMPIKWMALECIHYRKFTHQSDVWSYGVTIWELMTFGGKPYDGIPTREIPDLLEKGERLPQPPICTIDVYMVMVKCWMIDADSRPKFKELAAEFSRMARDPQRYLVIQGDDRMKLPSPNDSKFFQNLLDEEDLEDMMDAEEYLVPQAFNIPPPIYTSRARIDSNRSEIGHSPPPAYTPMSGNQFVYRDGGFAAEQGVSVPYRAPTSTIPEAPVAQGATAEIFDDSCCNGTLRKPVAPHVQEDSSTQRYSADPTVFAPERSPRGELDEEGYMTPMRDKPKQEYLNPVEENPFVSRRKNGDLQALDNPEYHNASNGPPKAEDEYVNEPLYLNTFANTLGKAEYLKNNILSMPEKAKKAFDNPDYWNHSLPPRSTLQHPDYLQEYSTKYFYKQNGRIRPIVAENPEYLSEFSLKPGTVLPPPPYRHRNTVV
UniProt P20782, sequence (whole entry, looked up): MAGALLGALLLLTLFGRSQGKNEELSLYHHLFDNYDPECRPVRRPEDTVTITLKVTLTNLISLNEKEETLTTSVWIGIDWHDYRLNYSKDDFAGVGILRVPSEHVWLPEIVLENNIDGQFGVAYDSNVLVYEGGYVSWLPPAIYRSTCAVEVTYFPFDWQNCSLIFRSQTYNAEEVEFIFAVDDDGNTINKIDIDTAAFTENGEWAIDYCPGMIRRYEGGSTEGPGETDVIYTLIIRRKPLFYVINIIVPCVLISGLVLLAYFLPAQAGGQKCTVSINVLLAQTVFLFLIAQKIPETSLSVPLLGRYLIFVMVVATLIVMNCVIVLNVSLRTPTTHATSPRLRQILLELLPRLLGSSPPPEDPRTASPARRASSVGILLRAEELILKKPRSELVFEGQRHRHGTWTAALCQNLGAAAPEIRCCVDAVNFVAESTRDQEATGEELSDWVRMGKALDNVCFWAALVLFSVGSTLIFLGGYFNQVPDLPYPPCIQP
UniProt P25021, sequence (whole entry, looked up): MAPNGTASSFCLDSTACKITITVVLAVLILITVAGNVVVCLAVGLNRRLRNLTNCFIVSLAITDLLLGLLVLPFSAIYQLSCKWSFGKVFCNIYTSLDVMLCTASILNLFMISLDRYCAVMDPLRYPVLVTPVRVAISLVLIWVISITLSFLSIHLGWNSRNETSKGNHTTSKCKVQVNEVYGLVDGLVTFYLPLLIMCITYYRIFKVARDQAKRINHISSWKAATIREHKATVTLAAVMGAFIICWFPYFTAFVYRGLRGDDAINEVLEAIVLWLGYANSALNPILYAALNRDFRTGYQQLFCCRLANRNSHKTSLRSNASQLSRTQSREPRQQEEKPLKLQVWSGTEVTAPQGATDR
UniProt P28221, sequence (whole entry, looked up): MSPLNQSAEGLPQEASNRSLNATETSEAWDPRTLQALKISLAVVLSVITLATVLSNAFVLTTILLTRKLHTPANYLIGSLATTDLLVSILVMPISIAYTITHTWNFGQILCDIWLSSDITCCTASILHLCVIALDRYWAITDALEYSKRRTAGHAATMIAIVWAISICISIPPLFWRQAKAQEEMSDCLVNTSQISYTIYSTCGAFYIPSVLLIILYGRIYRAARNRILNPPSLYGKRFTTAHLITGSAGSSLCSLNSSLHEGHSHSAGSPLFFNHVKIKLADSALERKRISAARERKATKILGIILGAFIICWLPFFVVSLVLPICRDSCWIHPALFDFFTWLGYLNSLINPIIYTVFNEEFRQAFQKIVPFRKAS
UniProt P28562, sequence (whole entry, looked up): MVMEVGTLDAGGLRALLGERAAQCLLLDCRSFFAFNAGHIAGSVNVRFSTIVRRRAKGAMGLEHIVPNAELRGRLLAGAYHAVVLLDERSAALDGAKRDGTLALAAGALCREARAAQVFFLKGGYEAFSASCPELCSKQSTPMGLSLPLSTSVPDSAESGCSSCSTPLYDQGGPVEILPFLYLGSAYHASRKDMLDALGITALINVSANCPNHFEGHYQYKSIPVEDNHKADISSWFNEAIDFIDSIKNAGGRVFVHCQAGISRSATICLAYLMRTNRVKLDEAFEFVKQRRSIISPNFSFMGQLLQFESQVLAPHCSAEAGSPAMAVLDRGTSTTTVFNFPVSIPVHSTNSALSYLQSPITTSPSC

SMILES | tested on | assay | system | conditions | scale | quantity | result
OC(c1ccc(F)cc1)C(F)(F)CCN1CCC(O)(c2ccc(Cl)cc2)CC1 (racemic) | DRD4 |  |  |  |  | Ki | 0.233 ± 0.025 µM
COc1ccc(S(=O)(=O)N2CCCCC2)cc1C | Melanopsin (OPN4, Homo sapiens, UniProt Q9UHM6) | radioligand binding | CHO-OPN4 cell membranes |  |  | Ki | 0.013 µM
Cc1cccc(C)c1N1C(=O)[C@H](CC2CNc3ccccc32)NC2(CCN(C)CC2)C1=O (stereo partly shown) | DRD4 | binding |  |  |  | Ki | > 10 µM
O[C@@H](CCCN1CCC(O)(c2ccc(Cl)cc2)CC1)c1ccc(F)cc1 | DRD4 |  |  |  |  | Ki | 0.116 ± 0.0167 µM
COc1cc2c3cc1Oc1cc(ccc1O)C[C@@H]1c4c(cc(OC)c(O)c4Oc4ccc(cc4)C[C@@H]3N(C)CC2)CC[N+]1(C)C | Chrnd/Chrna1/Chrne (Mus musculus, UniProt P02716+P04756+P20782) | inhibitor | mouse hemidiaphragm | two equal exclusive sites model |  | Ki | ~0.08 µM
Cc1cccc(C)c1N1C(=O)CNC2(CCN(C)CC2)C1=O | DRD4 | binding |  |  |  | Ki | > 10 µM
CC[C@H](C)[C@H](NC(=O)[C@H](Cc1ccccc1)NC(=O)[C@H](CCC(=O)O)NC(=O)[C@H](CCCNC(=N)N)NC(=O)[C@H](C)NC(=O)[C@H](C)NC(=O)[C@H](CCC(N)=O)NC(=O)[C@H](CCC(=O)O)NC(=O)[C@H](CCC(=O)O)NC(=O)[C@H](CC(C)C)NC(=O)[C@H](Cc1ccc(O)cc1)NC(=O)[C@H](CO)NC(=O)[C@H](CO)NC(=O)[C@@H](NC(=O)[C@H](CC(=O)O)NC(=O)[C@H](CO)NC(=O)[C@@H](NC(=O)[C@H](Cc1ccccc1)NC(=O)[C@@H](NC(=O)CNC(=O)[C@H](CCC(=O)O)NC(=O)[C@H](C)NC(=O)CCc1c[nH]cn1)[C@@H](C)O)[C@@H](C)O)C(C)C)C(=O)N[C@@H](C)C(=O)N[C@@H](Cc1c[nH]c2ccccc12)C(=O)N[C@@H](CC(C)C)C(=O)N[C@H](C(=O)N[C@@H](CCCNC(=N)N)C(=O)NCC(=O)N[C@@H](CCCNC(=N)N)C(=O)N[C@@H](CCCCNC(=O)COCCOCCNC(=O)COCCOCCNC(=O)CC[C@H](NC(=O)CCCCCCCCCCCCCCCCC(=O)O)C(=O)O)C(=O)NCC(=O)NCC(=O)N[C@@H](CO)C(=O)N[C@@H](CCCCNc1c(NCCCCCN(O)C(=O)CCC(=O)NCCCCCN(O)C(=O)CCC(=O)NCCCCCN(O)C(C)=O)c(=O)c1=O)C(=O)O)C(C)C [zirconium-89 labelled] |  |  | rat, intestine content | intravenous, 3 nmol/kg, 168 h |  | tissue uptake | 0.03 %ID/g
COc1cc2c(cc1OC)-c1c(OC)c(OC)cc3c1[C@H](C2)N(C)CC3 | 5-hydroxytryptamine receptor 2C (HTR2C, Homo sapiens, UniProt P28335) | radioligand binding |  |  |  | Ki | 0.939 µM
C[C@H]1CN(c2n[nH]c3nc(N[C@H]4CC[C@H](NS(=O)(=O)CCC(F)(F)F)CC4)ncc23)CCO1 | Receptor tyrosine-protein kinase erbB-4 (ERBB4, Homo sapiens, UniProt Q15303) | inhibitor, Kinobeads competition profiling |  | 0.16 µM | reference: vehicle | relative abundance | 1.06
Cc1cccc(C)c1N1C(=O)[C@H](CO)NC2(CCN(C)CC2)C1=O | Histamine H2 receptor (HRH2, Homo sapiens, UniProt P25021) | binding |  |  |  | Ki | > 10 µM
COc1ccc(N=Nc2ccc3[nH]cc(CCN(C)C)c3c2)cc1 | 5-hydroxytryptamine receptor 1D (HTR1D, Homo sapiens, UniProt P28221) | binding, radioligand binding |  | ambient light |  | Ki | 0.00351 µM
N[C@@H](CS)C(=O)O | SclA protein (Enterococcus faecalis, UniProt Q831E3, H100K) |  |  |  |  | Ki | 1240 ± 150 µM
COc1cc(Nc2ncc(F)c(Nc3ccc4c(n3)NC(=O)C(C)(C)O4)n2)cc(OC)c1OC | Dual specificity protein phosphatase 1 (DUSP1, Homo sapiens, UniProt P28562) | phosphatase activity, inhibitor |  |  |  | IC50 | > 10 µM
C[C@@H]1CC[C@@]2(OC1)O[C@H]1C[C@H]3[C@@H]4CC=C5C[C@@H](O)CC[C@]5(C)[C@H]4CC[C@]3(C)[C@H]1[C@@H]2C | Oxysterol-binding protein 2 (OSBP2, Homo sapiens, UniProt Q969R2) | [3H]-25-hydroxycholesterol binding, competitive inhibitor |  |  |  | Ki | > 100 µM
CC[C@H](C)[C@@H]1NC(=O)[C@@H]2CCCN2C(=O)[C@H](CC(C)C)NC(=O)[C@H](CC(C)C)NC(=O)CNC(=O)[C@@H](NC(=O)[C@@H](NC(=O)[C@H](CC(=O)O)NC(=O)CNC(=O)[C@@H](NC(=O)[C@H](C)NC(=O)CNC(=O)[C@H](CCCCN)NC(=O)[C@H](CC(C)C)NC(=O)[C@H](CC(C)C)NC(=O)[C@H](CCCCN)NC(=O)CNC(=O)[C@@H](NC(=O)[C@@H](N)CC(C)C)C(C)C)C(C)C)C(C)C)CSSC[C@@H](C(=O)O)NC1=O |  | RNA-seq, refers to: Cybb mRNA | mouse traumatic brain injury, frontal cortex and hippocampus | dose not given | reference: TBI plus compound vs TBI | log2 fold change | -1.91
CO[C@H]1C[C@@H]2CC[C@@H](C)[C@@](O)(O2)C(=O)C(=O)N2CCCC[C@H]2C(=O)O[C@H]([C@H](C)C[C@@H]2CC[C@@H](OC(=O)NCCOCCOCCOCCOCCOCCOCCOCCOCCC(=O)N3CCc4cc(Cn5nc(-c6ccc7oc(N)nc7c6)c6c(N)ncnc65)ccc4C3)[C@H](OC)C2)C[C@@H](O)[C@H](C)/C=C(\C)[C@@H](O)[C@@H](OC)C(=O)[C@H](C)C[C@H](C)/C=C/C=C/C=C/1C |  | phase 1 dose escalation | advanced solid tumour patients | intravenous, 8 mg weekly, any grade |  | any SAE incidence | 37.5%

For quick reference, copied from above:
SMILES | tested on | assay | system | conditions | scale | quantity | result
CC[C@H](C)[C@H](NC(=O)[C@H](Cc1ccccc1)NC(=O)[C@H](CCC(=O)O)NC(=O)[C@H](CCCNC(=N)N)NC(=O)[C@H](C)NC(=O)[C@H](C)NC(=O)[C@H](CCC(N)=O)NC(=O)[C@H](CCC(=O)O)NC(=O)[C@H](CCC(=O)O)NC(=O)[C@H](CC(C)C)NC(=O)[C@H](Cc1ccc(O)cc1)NC(=O)[C@H](CO)NC(=O)[C@H](CO)NC(=O)[C@@H](NC(=O)[C@H](CC(=O)O)NC(=O)[C@H](CO)NC(=O)[C@@H](NC(=O)[C@H](Cc1ccccc1)NC(=O)[C@@H](NC(=O)CNC(=O)[C@H](CCC(=O)O)NC(=O)[C@H](C)NC(=O)CCc1c[nH]cn1)[C@@H](C)O)[C@@H](C)O)C(C)C)C(=O)N[C@@H](C)C(=O)N[C@@H](Cc1c[nH]c2ccccc12)C(=O)N[C@@H](CC(C)C)C(=O)N[C@H](C(=O)N[C@@H](CCCNC(=N)N)C(=O)NCC(=O)N[C@@H](CCCNC(=N)N)C(=O)N[C@@H](CCCCNC(=O)COCCOCCNC(=O)COCCOCCNC(=O)CC[C@H](NC(=O)CCCCCCCCCCCCCCCCC(=O)O)C(=O)O)C(=O)NCC(=O)NCC(=O)N[C@@H](CO)C(=O)N[C@@H](CCCCNc1c(NCCCCCN(O)C(=O)CCC(=O)NCCCCCN(O)C(=O)CCC(=O)NCCCCCN(O)C(C)=O)c(=O)c1=O)C(=O)O)C(C)C [zirconium-89 labelled] |  |  | rat, intestine content | intravenous, 3 nmol/kg, 168 h |  | tissue uptake | 0.03 %ID/g
